Measured values of several laboratories.
Each line is one published result; not all experiments were run side by side. ± gives the spread as reported.
ACHE: Acetylcholinesterase (ACHE, Homo sapiens, UniProt P22303)
AKT1: RAC-alpha serine/threonine-protein kinase (AKT1, Homo sapiens, UniProt P31749)
BCHE: Cholinesterase (BCHE, Homo sapiens, UniProt P06276)
PTGS2: Prostaglandin G/H synthase 2 (PTGS2, Homo sapiens, UniProt P35354)
Mycosin-1: Mycosin-1 (Mycolicibacterium thermoresistibile, UniProt G7CDQ2)

| SMILES | target | assay | system | setting | scale | inhibition |
| --- | --- | --- | --- | --- | --- | --- |
| O=C(O)CCCC(=O)O | ACHE | enzyme activity, inhibitor | – | 250 µg/mL | – | 61.4 ± 2.09% |
| [N-]=[N+]=N[C@H]1O[C@H](CO)[C@@H](O)[C@H](O)[C@H]1O | GAA (Homo sapiens, UniProt P10253) | enzyme activity, inhibitor, fluorescence | – | 1.43 mM, pH 4, lysate | – | 9% |
| COc1ccc(N2C(=O)CSC2c2cccc(Br)c2)c(OC)c1 (stereo not shown) | ARP2/ARP3 (Saccharomyces cerevisiae, UniProt P32381+P47117) | actin polymerization, pyrenyl-actin | – | concentration not given | – | no inhibition |
| CC(=O)NC(Cc1ccc(Br)c(Cl)c1)C(=O)N[C@@H](C)C(=O)N1CCC[C@H]1C(=O)N1CCC[C@H]1C(=O)N[C@@H](CCC(=O)O)C(=O)N[C@@H](Cc1c[nH]cn1)C(=O)N[C@@H](CO)C(=O)N[C@H](C(=O)N[C@@H](C)C(N)=O)[C@@H](C)OP(=O)(O)O (stereo partly shown) | AKT1 | enzyme activity, inhibitor | – | 10 µM | – | 0.08% |
| S=C(NCc1ccccn1)NCc1ccccn1 | ACHE | enzyme activity, inhibitor | – | 1000 µg/mL | – | 78.7% |
| CCN(CC)c1ncnc2c1ncn2[C@@H]1O[C@H](COP(=O)(O)OP(=O)(O)C(Br)(Br)P(=O)(O)O)[C@@H](O)[C@H]1O | Ectonucleoside triphosphate diphosphohydrolase 2 (Rattus norvegicus, UniProt O35795) | enzyme activity, inhibitor | – | 1 mM | – | 50% |
| CCCC[C@@H]1NC(=O)[C@H](Cc2ccccc2)NC(=O)CNC(=O)[C@H](NC(=O)[C@@H](N)Cc2ccc(O)cc2)C(C)(C)SSC(C)(C)[C@@H](C(=O)N[C@@H](Cc2c[nH]c3ccccc23)C(=O)NCc2cc(C(F)(F)F)cc(C(F)(F)F)c2)NC(=O)[C@@H]2CCCN2C1=O | OPRM1 (Cavia porcellus, UniProt P97266) | electrically stimulated contraction, agonist | guinea pig isolated ileum | 1 µM | – | 6% |
| O=c1c(O)c(-c2cc(O)ccc2O)oc2cc(O)cc(O)c12 | BCHE | enzyme activity, inhibitor, Ellman | – | 125 µg/mL | – | 53.2% |
| COc1cccc(/C=C/C(=O)C(c2ccccc2)c2ccccc2)c1OC | PTGS2 | enzyme activity, inhibitor, ELISA | – | 40 µg/mL | – | 80.7 to 92.5% |
| CC(C)OC(=O)c1ccc(OC(=O)C2CCNCC2)cc1 | clpP (Staphylococcus aureus, UniProt Q2G036) | enzyme activity, inhibitor | – | 1 µM | – | > 50% |
| Cc1cc(C)n(C(C(=O)OC(C)C)n2nc(C)cc2C)n1.F[P-](F)(F)(F)(F)F.[Cu+].c1ccc(P(c2ccccc2)c2ccccc2)cc1 | P4HB (Homo sapiens, UniProt P07237) | enzyme activity, inhibitor | – | 50 µM | – | ~90% |
| O=C(O)/C=C/c1cc(O)cc(O)c1 | BCHE | enzyme activity, inhibitor, Ellman | – | 500 µg/mL | – | 74.1% |
| CN(C)C=Nc1c(C#N)cnn1-c1ccc(F)c(Cl)c1 | Aurora kinase B-A (Xenopus laevis, UniProt Q6DE08) | kinase activity | – | concentration not given | – | no inhibition |
| C=C1C(=O)N[C@@H](C)C(=O)N(C)[C@@H](C)C(=O)N[C@@H]([C@H](OC(=O)[C@@H](NC(C)=O)[C@H](O)C(C)C)C(C)C)C(=O)N(C)[C@@H]([C@@H](C)OC)C(=O)O[C@H](C)[C@H](NC(C)=O)C(=O)O[C@H](Cc2ccccc2)C(=O)N1C | Guanine nucleotide-binding protein subunit alpha-11 (Homo sapiens, UniProt P29992, Q209L) | basal IP1 accumulation, inhibitor | HEK293 expressing Gα11 Q209L | concentration not given | – | no effect |
| CCNC(=O)Nc1ccc(OC/C=C\COc2ccc(CCN)cc2)cc1 | Transcription antitermination protein NusB, with NusE (nusB, Bacillus subtilis, UniProt P54520) | protein-protein interaction, inhibitor, competitive ELISA | – | 25 µM, 15 min preincubation, 37 °C, with: 200 nM GST-NusE | – | 50% |
| C[C@H](NC(=O)[C@H](CCCNC(=N)N)NC(=O)[C@H](CCC(=O)O)NC(=O)[C@H](CCCNC(=N)N)NC(=O)[C@H](CCCNC(=N)N)NC(=O)[C@@H](NC(=O)[C@H](CCCNC(=N)N)NC(=O)[C@H](C)NC(=O)[C@H](CCCNC(=N)N)NC(=O)[C@H](CCC(=O)O)NC(=O)[C@@H](N)CCCNC(=N)N)[C@@H](C)O)C(=O)N[C@@H](CCCNC(=N)N)C(=O)N[C@H](C(=O)N[C@@H](CCCNC(=N)N)C(=O)N[C@@H](CCC(=O)O)C(=O)N[C@@H](CCCNC(=N)N)C(=O)N[C@@H](C)C(=O)N[C@@H](CCCNC(=N)N)C(=O)N[C@H](C(=O)N[C@@H](CCCNC(=N)N)C(=O)O)[C@@H](C)O)[C@@H](C)O | CLK2 | enzyme activity | – | 100 µM | – | no inhibition |
| COc1cc(/N=N/C(C#N)C#N)cc(OC)c1OC | Mycosin-1 | enzyme activity | – | 150 µM | baseline: DMSO control | 68% |
| CC(C)C(O)C(NC(=O)[C@H](Cc1ccc(O)cc1)NC(=O)C(Cc1ccc(O)cc1)[N+](C)(C)C)C(=O)N[C@@H](C)C(=O)O (stereo partly shown) | Gag-Pol polyprotein, protease (gag-pol, Human immunodeficiency virus type 1 group M subtype B, UniProt P04585) | enzyme activity | – | concentration not given | – | inactive |
| O=C(O)/C=C/c1ccc(O)cc1 | BCHE | enzyme activity, inhibitor, Ellman | – | 62.5 µg/mL | – | 48.1% |
| CC(C)[C@H]1NC(=O)[C@H](CO)NC(=O)c2cc3cc(c2)C(=O)NC[C@H](NC(=O)[C@H](Cc2c[nH]cn2)NC(=O)[C@H](Cc2ccc(C(F)(F)P(=O)(O)O)cc2)NC(=O)[C@@H]2CCCN2C1=O)C(=O)N[C@@H](Cc1ccccc1)C(=O)N[C@@H](Cc1ccc2ccccc2c1)C(=O)N[C@@H](CCCNC(=N)N)C(=O)N[C@@H](CCCNC(=N)N)C(=O)N[C@@H](CCCNC(=N)N)C(=O)N[C@@H](CCCNC(=N)N)C(=O)N[C@H](C(=O)N[C@@H](CCCCN)C(N)=O)CNC3=O | PTPRC (Homo sapiens, UniProt P08575) | enzyme activity, inhibitor, absorbance | – | 1 µM | – | ≤ 10% |
| CC(C)C[C@@H](NC(=O)CNC(=O)/C=C/c1ccco1)C(N)=O | Mycosin-1 | enzyme activity | – | 150 µM | baseline: DMSO control | 67% |
| CC[C@H](C)[C@@H]1NC(=O)[C@H](CC(C)C)NC(=O)CNC(=O)[C@H](CCCNC(=N)N)NC(=O)[C@H](Cc2c[nH]c3ccccc23)NC(=O)[C@H](CCSC)NC(=O)[C@H](CO)NC(=O)[C@H](CCC(=O)O)NC(=O)[C@H](Cc2ccccc2)NC(=O)[C@H](CC(=O)O)NC(=O)[C@H]([C@@H](C)O)NC(=O)CNC(=O)[C@H](CCC(=O)O)NC(=O)[C@H]([C@@H](C)O)NC(=O)CNC(=O)[C@H](CC(=O)O)NC1=O | MDM2 (Homo sapiens, UniProt Q00987) | protein-protein interaction, inhibitor, AlphaScreen | – | 50 µM | – | > 50% |
| CC[C@H](C)[C@H](NC(=O)[C@H](CCCNC(=N)N)NC(=O)[C@H](CCCCN)NC(=O)[C@@H]1CCCN1C(=O)[C@@H]1CCCN1CCCN(CC[C@H](N)C(=O)O)C[C@H]1O[C@@H](n2cnc3c(N)ncnc32)[C@H](O)[C@@H]1O)C(=O)N[C@@H](C)C(N)=O | Protein arginine N-methyltransferase 7 (PRMT7, Trypanosoma brucei brucei, UniProt Q582G4) | – | – | 10 µM | – | < 40% |
| N#C[C@@H](/N=N/c1ccccc1)C(=O)c1ccccc1 | Mycosin-1 | enzyme activity | – | 150 µM | baseline: DMSO control | 59% |
| O=C(C[P+]([Au-][Cl])(c1ccccc1)c1ccccc1)[O][Ti+2][O]C(=O)C[P+]([Au-][Cl])(c1ccccc1)c1ccccc1.c1cc[cH-]c1.c1cc[cH-]c1 | AKT2 (Homo sapiens, UniProt P31751) | kinase activity | – | 10 µM | – | ≥ 50% |
| Cc1ccc(N2CC3CCC(C2)N3C)cc1C(=O)N[C@H](C)c1cc(-c2cnn(C)c2)nc2ccccc12 | CAPN1 (Homo sapiens, UniProt P07384) | enzyme activity | – | concentration not given | – | no inhibition |
| Cc1ccc(C(=O)/C=C/c2ccc(N(C)CCO)cc2)o1 | PTGS2 | enzyme activity, inhibitor, ELISA | – | 40 µg/mL | – | 80.7 to 92.5% |
| [Cl][Au-][P+](c1ccccc1)(c1ccccc1)c1cc[cH-]c1.[Cl][Au-][P+](c1ccccc1)(c1ccccc1)c1cc[cH-]c1.[Cl][Ti+2][Cl] | AKT1 | kinase activity | – | 10 µM | – | ≥ 50% |

Excerpt of the above:
| SMILES | target | assay | system | setting | scale | inhibition |
| --- | --- | --- | --- | --- | --- | --- |
| CC[C@H](C)[C@@H]1NC(=O)[C@H](CC(C)C)NC(=O)CNC(=O)[C@H](CCCNC(=N)N)NC(=O)[C@H](Cc2c[nH]c3ccccc23)NC(=O)[C@H](CCSC)NC(=O)[C@H](CO)NC(=O)[C@H](CCC(=O)O)NC(=O)[C@H](Cc2ccccc2)NC(=O)[C@H](CC(=O)O)NC(=O)[C@H]([C@@H](C)O)NC(=O)CNC(=O)[C@H](CCC(=O)O)NC(=O)[C@H]([C@@H](C)O)NC(=O)CNC(=O)[C@H](CC(=O)O)NC1=O | MDM2 (Homo sapiens, UniProt Q00987) | protein-protein interaction, inhibitor, AlphaScreen | – | 50 µM | – | > 50% |
| COc1ccc(N2C(=O)CSC2c2cccc(Br)c2)c(OC)c1 (stereo not shown) | ARP2/ARP3 (Saccharomyces cerevisiae, UniProt P32381+P47117) | actin polymerization, pyrenyl-actin | – | concentration not given | – | no inhibition |
| Cc1cc(C)n(C(C(=O)OC(C)C)n2nc(C)cc2C)n1.F[P-](F)(F)(F)(F)F.[Cu+].c1ccc(P(c2ccccc2)c2ccccc2)cc1 | P4HB (Homo sapiens, UniProt P07237) | enzyme activity, inhibitor | – | 50 µM | – | ~90% |
